Measured values from different studies.
Each numbered part is a random draw from the data of one study; scales do not carry over between parts. Positions count from the first letter of the parent shown.

Series 1
Target: Sal-like protein 4, full length isoform B (SALL4, Homo sapiens, UniProt Q9UJQ4-2, residues 1-616)
Method: universal PBM
Molecule type: double-stranded DNA, one strand shown
Sample: in vitro
Tested at: not given
Setting: 8-mer, flanks averaged, mean of replicates
Direction: higher = stronger binding
| Strand | E-score |
| --- | --- |
| GTCCAATA | 0.199 |
| AACTGCTG | -0.135 |
| GAGGCTCA | -0.162 |
| AGGTAGAT | 0.0137 |
| AATGGAAC | 0.0445 |
| GCGAGAGA | -0.176 |
| TAGCGAAA | 0.217 |
| CGCGCATA | 0.0284 |
| CGAGAGCA | -0.0516 |
| ATCTACTC | 0.0585 |
| GGTACCAC | -0.143 |
| AACCTTAA | 0.156 |
| CCTCATTC | -0.0402 |
| ACAATCCG | -0.0449 |
| CATAATGA | 0.254 |
| ACATCCAT | 0.177 |
| CGCCTCTA | -0.125 |
| GAATAGGC | -0.0394 |
| CACAATAC | 0.132 |
| CCTCGCAA | -0.115 |
| CAGTAAGC | -0.0903 |
| ATGCTTCG | 0.00943 |
| TGTACACA | 0.313 |
| CGGAATTA | 0.214 |
| CACCCTGC | -0.108 |

Series 2
Target: ABI1, truncated, D143A, DHFR fusion (Arabidopsis thaliana)
Method: DHFR PCA, deep sequencing
Sample: yeast
Setting: methotrexate growth selection, single substitutions
With: (+)-ABA 0.0091 µM
Reference: wild-type fitted maximum
Direction: higher = stronger binding
Parent: PYL1, truncated, DHFR fusion (Arabidopsis thaliana); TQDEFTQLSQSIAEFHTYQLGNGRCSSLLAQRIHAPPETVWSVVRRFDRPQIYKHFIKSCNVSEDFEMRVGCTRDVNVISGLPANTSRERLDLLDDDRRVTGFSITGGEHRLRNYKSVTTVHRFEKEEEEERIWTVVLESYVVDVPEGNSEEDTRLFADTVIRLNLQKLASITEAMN; partner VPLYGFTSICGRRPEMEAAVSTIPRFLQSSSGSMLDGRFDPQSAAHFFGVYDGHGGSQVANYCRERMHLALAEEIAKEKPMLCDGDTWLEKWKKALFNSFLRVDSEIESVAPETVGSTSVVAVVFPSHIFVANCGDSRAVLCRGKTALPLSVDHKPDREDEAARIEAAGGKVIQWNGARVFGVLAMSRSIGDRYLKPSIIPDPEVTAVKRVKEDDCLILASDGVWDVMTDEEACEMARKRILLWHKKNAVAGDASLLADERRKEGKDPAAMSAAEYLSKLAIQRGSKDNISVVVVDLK
| Substitution | relative binding score |
| --- | --- |
| V118D | -0.0312% |
| E130T | 35.2% |
| N165Y | 0.84% |
| A170N | -8.64% |
| D95N | 5.47% |
| H16T | -4.13% |
| V100Y | -11% |
| T17G | -2.69% |
| D75T | 41.4% |
| E109Y | -6.66% |
| Y18E | -0.227% |
| E125M | 22.6% |
| R111D | -10.4% |
| N149V | 56.4% |
| R88V | 33.1% |
| R49T | 8.77% |

Series 3
Target: CCNB3, cyclin fold, Cln2 fusion (human)
Method: yeast growth competition, sequencing
Sample: yeast
Setting: weak parent motif
Reference: not given
Direction: higher = stronger binding
Parent: FOXM1 docking peptide (human); PHLARPIKVESPP; partner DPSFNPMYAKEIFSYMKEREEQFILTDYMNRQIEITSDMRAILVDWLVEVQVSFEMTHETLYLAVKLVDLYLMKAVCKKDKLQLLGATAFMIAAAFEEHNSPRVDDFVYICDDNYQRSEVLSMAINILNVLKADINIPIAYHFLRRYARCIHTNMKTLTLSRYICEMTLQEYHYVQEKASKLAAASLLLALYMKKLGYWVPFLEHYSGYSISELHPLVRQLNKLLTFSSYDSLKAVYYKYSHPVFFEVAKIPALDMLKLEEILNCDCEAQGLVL
| Substitution | normalised enrichment score |
| --- | --- |
| K8A | 0.0349 |
| I7A | -0.241 |
| P1A | -0.247 |
| P13A | -0.163 |
| S11A | 0.0766 |
| L3A | -0.133 |

Series 4
Target: Interferon regulatory factor 7, full length, phosphomimetic (IRF7, Homo sapiens, UniProt Q92985, residues 1-503, S101K/S471D/S472D/S475D/S476D/S477D/S483D/S484D/S487D)
Method: protein-binding microarray
Molecule type: double-stranded DNA, one strand shown
Sample: in vitro
Tested at: 250 nM
Setting: 60-bp whole probe
With: salmon DNA 0.4 mg/ml
Reference: random background probes
Direction: higher = stronger binding
Shared flanks, not repeated: GCCTAGCAC … GTCTTGATTCGCTTGACGCTGCTG
Residues (chain): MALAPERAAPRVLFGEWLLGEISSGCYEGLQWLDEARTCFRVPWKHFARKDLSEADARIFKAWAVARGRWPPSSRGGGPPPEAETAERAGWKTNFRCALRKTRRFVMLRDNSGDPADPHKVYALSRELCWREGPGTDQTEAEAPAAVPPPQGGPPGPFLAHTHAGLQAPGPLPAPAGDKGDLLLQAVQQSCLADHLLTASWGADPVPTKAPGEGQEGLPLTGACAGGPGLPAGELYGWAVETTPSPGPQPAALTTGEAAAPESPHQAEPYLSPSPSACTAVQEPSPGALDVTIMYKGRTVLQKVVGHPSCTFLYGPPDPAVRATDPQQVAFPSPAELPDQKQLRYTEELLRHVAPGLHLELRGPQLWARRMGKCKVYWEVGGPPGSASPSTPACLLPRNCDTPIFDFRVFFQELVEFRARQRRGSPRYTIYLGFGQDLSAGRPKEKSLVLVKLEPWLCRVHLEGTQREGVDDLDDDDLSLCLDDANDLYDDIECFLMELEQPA
| Strand | log fluorescence [z-score] |
| --- | --- |
| GACGATTTCAGTCTCGAGATGTGCTAG | 1.17 |
| TTAGGTTTCCTTCTCCTATAGTGCTAG | 3 |
| TCATCTCTGCCACTCAGACTGTGCTAG | 0.363 |
| GACGGTCCCCTACTGCTGACGTGCTAG | -0.195 |
| TTAGGTATCCTGCTGCTTTAGTGCTAG | -0.388 |
| GACGGAGTGCTTTTCCTGACGTGCTAG | -0.204 |
| TTAGGTTTCGAATATCGGTTAGTGCTA | 4.8 |
| TTAGATCTCAGTCTCGGTTAGTGCTAG | 1.66 |
| ATAGAACTGGGGTATCGATTAGTGCTA | 0.222 |
| TCACGTGTTTTTCTCCTACTGTGCTAG | 0.336 |
| TTAGGTCTCTGTTTCGGTTAGTGCTAG | 5.69 |
| TTAGGTCGCGGTTTCGGTTAGTGCTAG | 9.57 |
| TCATTTGTTTTTTTCTAACTGTGCTAG | 2.02 |
| GACGGTATCGTTTTCCTGACGTGCTAG | 4.8 |
| TCATTTTTCTACTTCTCACTGTGCTAG | 2.36 |
| TTAGAACTGGGGTGTCGATTAGTGCTA | -0.451 |
| GCCAAAAGTGTAAATGTAAGGTGCTAG | -0.417 |
| GCCGGTTTCGACTTTCGGGACGTGCTA | 11.4 |
| GACGGTAGCCTACTGCTGACGTGCTAG | -0.893 |
| GACGGACTGGACTTTCGGGTCGTGCTA | 0.0102 |
| TCACCTCTCTTTCCAACACTGTGCTAG | 0.871 |
| TCACTTCCCAATTGTCTTACTGTGCTA | 1.92 |
| TTTGGTATCGGTCTCGGTTAGTGCTAG | 2.63 |
| TAGGGACTCGGGTCTCCCTTGGTGCTA | 0.986 |
| TTAGAACTGAGGTATCGATTAGTGCTA | 0.389 |

Series 5
Target: RNA binding protein fox-1 homolog 2, RRM domain, GST-SBP tag (RBFOX2, Homo sapiens, UniProt O43251-10, residues 100-194)
Method: RNA Bind-n-Seq
Molecule type: RNA
Sample: in vitro
Tested at: 365 nM
Setting: natural RNA segment, single round, ends assumed
Reference: no-protein control
Direction: higher = stronger binding
Shared flanks, not repeated: GGGAGUUCUACAGUCCGACGAUC … UGGAAUUCUCGGGUGCCAA
Residues (chain): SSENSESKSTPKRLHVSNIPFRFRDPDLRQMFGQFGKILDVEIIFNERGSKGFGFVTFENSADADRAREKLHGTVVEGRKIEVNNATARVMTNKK
| Strand | RBNS enrichment (R) |
| --- | --- |
| UUUUGACCCAUGUAAUUUACCUAAAAGUUGUAAUUGCUGACAGAGUACUGCCUUGAAUUUUGGUUUAAAACCUCUCUAGUUUCAAUGACAAGUAACAACUCAAAUAAUUC | 0.604 |
| AAUAUUCUGAAAGAUAAUCUUCCUUUGGCUCAUUCUAUGACAUGUACAACUCUUAAGAAAGCCAUACUUAAUGGUGAUGUUAUUUUUUAGAUCCUAUUGUGAUUUGUAUG | 0.343 |
| CGCUUCUGCAUCCUGGAUGUGUGCUGUGUACGCUGAGCAUCACAGUAUGUUCUGUGUCUCCACUAGCCACUUCUGGGGAGUGCCUGAAGCUCUUUGACUUUGACAAGAGG | 0.244 |
| UGAGCCCGUUACCGCGUGACUCCCACCAUCCAGCUCGCGCUCCUCGUGGAUUCAGCCAUGCAUGGACUGGGGUGUUCCCUGGCCCAUGGUCACCUGUGCCCCUCGUGUCU | 0.189 |
| CCCCAACUACAGCUGGAGACGGGGCCAGCUCGGCGGCCUGCUGGUCCUCUGCUUGCUGGAACAUUCUAACAUUUACACUUUUGUUAUAAGCUAUUUAAAACCAGUAAGGA | 0.567 |
| CAGGACCCAGGACCUCUGGUUCUCUCCUUGUUCUGGGCAGUGAGGAGCAUAGGACCUGGUCUCUGGCUCUCCUCCCCCCUGCUGUGUAAAUAGUCUCCCCAUCCCAUGAG | 0.332 |
| AAAAUUAUUAGGGUUUUUACAUAACUCUGGAAUCUGUUGCUUUUAUAAACAAAUUGUUCAAUUUUAGGAAUUCCCCGUUACCUCCACAGUCAGUUGUGAGGGCCUGAUUA | 0.808 |
| GGGGCCACUGCUGAUAUUUGGCCUCUGCACAAGUGUGAGUGAAGAGAAAGAUUGGAAGCAGCUGCUGCCGCUACCGCCAACCAAAUCUUGCCAAUCCUGUCCCUGAAGCA | 1.83 |
| CUAAAAUUAUAAGUUUAGAGAAUCCUGUAAGAGGGGUGGGUGCAUGUCUUAAUGCUGAGAAGCAGCAGCUUUGGGGUUGAAUUUACUUGAAUGGUUUAAAAAGAUUGCAU | 5.19 |
| AAAGGCAGCAAGCAGAUAGACUCAAGGUGUGUGAAAGAUGUUAUACACCAGGAGCUGCCACUGCAUGUCCCAACCAGACUGUGUCUGUCUGUGUCUGCAUGUAAGAGUGA | 11.4 |
| GAUAUUUUCAGAUAACUAGGAUAACUUGUUGCUUUGUUACCCAGCCUAAUUGAAGAGUGGCAGAGGCUACUACAAAAAGCAACCUUUUCAUUUUCACUAAGAGUUUAAAA | 0.318 |
| UAUAAGCAAAUUAAGAAUUACUCAUUCAAAUUUUUCCAGUGUUAAUCGAUAAUAAAUGAUGGCUUGAUACACUACAGAAAGUGUAUUCUUGUUUAAAAGAUGUCUGAAAC | 0.82 |

A few entries again (series 2):
| Substitution | relative binding score |
| --- | --- |
| V118D | -0.0312% |
| E130T | 35.2% |
| V100Y | -11% |
| R88V | 33.1% |
| H16T | -4.13% |
| D95N | 5.47% |
| E125M | 22.6% |
| Y18E | -0.227% |
| T17G | -2.69% |
